Measured values collected from several papers.
Several values in a cell are separate wells, animals, samples, runs or records. ± marks the error that the study gave.

Compound	tested on	test	system	conditions	how to read	quantity	result
Cn1ncc(S(=O)(=O)NCc2ccn(-c3ccc(Br)cc3)n2)c1C(=O)O	–	colloidal aggregate formation, dynamic light scattering	50 mM potassium phosphate buffer	200 µM, pH 7.0, 1% DMSO	higher = more aggregation	DLS scattered light intensity	751000 counts/s
NC(=O)c1cnc2[nH]ccc2c1N[C@@H]1[C@@H]2CC3C[C@H]1C[C@@](O)(C3)C2	–	CD4+ effector memory T cells, flow cytometry	Japanese humans, peripheral blood	20 mg single dose	relative to: baseline	percent change	0.07%
COc1ccc(F)cc1C(=O)NCc1ccc(-c2nn([C@@H](C)C(F)(F)F)c(N)c2C(N)=O)cc1	–	–	healthy men, urine	intravenous, 22 µg	relative to: dose	unchanged drug excreted	7.4%
Cc1cccc(Cn2cc(CO)c3cnccc32)c1	–	–	male F344 rat, serum	oral, 100 mg/kg/day, 2 days	–	GGT	1.3 U/L
O=C(Cc1ccc(-c2nn[nH]n2)nc1)Nc1cc(F)cc(Cl)c1O	–	colloidal aggregate formation, dynamic light scattering	50 mM potassium phosphate buffer	200 µM, pH 7.0, 1% DMSO	higher = more aggregation	DLS scattered light intensity	1.58e+06 counts/s
CN1C[C@H](COc2nccc3c(NCc4ccco4)cc(Cl)nc23)OC1=O	–	–	rabbit, isolated Langendorff heart	dose not given	–	effect on QT	negative
CC(C)C[C@H](NC(=O)C[C@H](O)[C@H](CC(C)C)NC(=O)[C@H](Cc1c[nH]cn1)NC(=O)CNC(=O)[C@@H](NC(=O)[C@H](C)NC(=O)[C@H](Cc1c[nH]c2ccccc12)NC(=O)[C@H](CCC(N)=O)NC(=O)[C@@H](Cc1ccccc1)NC(=O)COCCOCCNC(=O)CCC(C(=O)O)N1CCN(CC(=O)O)CCN(CC(=O)O)CCN(CC(=O)O)CC1)C(C)C)C(N)=O (some centres unmarked) [lutetium-177 labelled]	–	–	BALB/c nu/nu mice, female, blood	intravenous, 100 pmol, 30 min, time course 0.5 h, together with: PA 300 µg	–	tissue uptake	1.9 ± 0.7 %ID/g
Cn1c(C(F)(F)F)cc(=O)n(-c2cc(Oc3cccnc3OCC(=O)O)c(Cl)cc2F)c1=O	–	–	Crl:CD(SD) rats, female, plasma	oral diet, 50 ppm in diet, day 1, 90-day toxicity study	–	AUC(0-24 h)	1440 ng·h/mL
C=CC(=O)N1CCC(c2ccc(C(N)=O)c(-c3ccc(Oc4ccccc4)cc3)n2)CC1	–	CTCAE 4.03	patients with relapsed/refractory MCL	oral, dose not given	–	incidence of serious herpes zoster	0.9%
CC[C@H](C)[C@H](NC(=O)[C@H](Cc1ccccc1)NC(=O)[C@H](CCC(=O)O)NC(=O)[C@H](CCCCNC(=O)COCCOCCNC(=O)COCCOCCNC(=O)CC[C@H](NC(=O)CCCCCCCCCCCCCCCCC(=O)O)C(=O)O)NC(=O)[C@H](C)NC(=O)[C@H](C)NC(=O)[C@H](CCC(N)=O)NC(=O)CNC(=O)[C@H](CCC(=O)O)NC(=O)[C@H](CC(C)C)NC(=O)[C@H](Cc1ccc(O)cc1)NC(=O)[C@H](CO)NC(=O)[C@H](CO)NC(=O)[C@@H](NC(=O)[C@H](CC(=O)O)NC(=O)[C@H](CO)NC(=O)[C@@H](NC(=O)[C@H](Cc1ccccc1)NC(=O)[C@@H](NC(=O)CNC(=O)[C@H](CCC(=O)O)NC(=O)C(C)(C)NC(=O)[C@@H](N)Cc1cnc[nH]1)[C@@H](C)O)[C@@H](C)O)C(C)C)C(=O)N[C@@H](C)C(=O)N[C@@H](Cc1c[nH]c2ccccc12)C(=O)N[C@@H](CC(C)C)C(=O)N[C@H](C(=O)N[C@@H](CCCNC(=N)N)C(=O)NCC(=O)N[C@@H](CCCNC(=N)N)C(=O)NCC(=O)O)C(C)C	–	hypoglycaemic clamp	type 2 diabetes patients	dose not given, from glucose nadir to recovery	–	diastolic blood pressure change	1.7 mmHg
Cc1cc(Nc2ccc(S(F)(F)(F)(F)F)cc2)n2nc(C(C)(F)F)nc2n1	Plasmodium vivax	–	human Plasmodium vivax malaria patients	oral, 800 mg	–	patients with cardiac adverse events	0%
C[C@@H]1COCCN1c1cc(C2([S@](C)(=N)=O)CC2)nc(-c2cc[nH]c3nccc2-3)n1	–	–	Japanese advanced solid tumour patients	oral, 240 mg twice daily, any grade	–	Pyrexia incidence	0%
CNC(=O)c1cccc(-c2ccc([C@@H](O)[C@H]3O[C@H](CO)[C@@H](O)[C@H](O)[C@@H]3O)c(C)c2)c1	–	–	Sprague-Dawley rat, male, plasma	intravenous, 3 mg/kg	–	terminal half-life	28.9 min and 30.7 min and 28.3 min
O=C1NCCc2nc(OCc3cccc(F)c3)ccc21	–	refers to: Lacrimation	Sprague-Dawley rat male	oral, 100 mg/kg, 30 min	direction not given	Irwin test score	0
C[Si](C)(C)O[Si](C)(C)O[Si](C)(C)C	–	–	1-octanol/water	2.7-6.3 µg/L in water, 20.8 °C	–	log KOW	6.87
CNC(=O)c1ccc(-c2cnc3ncc(Cc4ccc5ncccc5c4)n3n2)cc1F	–	–	Japanese patients	oral, 400 mg, grade 3/4	–	Lipase increased dose reduction/interruption	2%
CCCCOc1ccc([C@H]2CC[C@H](CCC)CC2)c(F)c1F	–	refers to: compound	human pregnant women, male fetuses, cord serum	dose not given, paired maternal-cord samples, mean	–	concentration	7.73 ng/mL
C[C@H](CS)C(=O)N1CCC[C@H]1C(=O)O	–	–	male Hartley guinea pig, anaesthetized	intravenous infusion, 10 mg/kg, 10 min infusion, post-infusion	–	QTc interval	334 ± 0.6 ms
COc1ccc2c(c1)CN(C(=O)CCN1CCC(Cc3ccccc3)CC1)CC[S@@+]2[O-]	–	telemetry	conscious dog	intravenous, 8 mg/kg, 0.5 h	–	diastolic blood pressure	94 ± 24 mmHg
Cc1ccc(Sc2ccccc2N2CCNCC2)c(C)c1	–	refers to: any TEAE	healthy adult men	oral, 10 mg daily, 12 days	–	participants with TEAE	16.7%
C[C@@H]1CN(c2c(F)c(N)c3c(=O)c(C(=O)O)cn(C4CC4)c3c2F)C[C@H](C)N1	–	–	male Hartley guinea pig, anaesthetized	intravenous, 30 mg/kg, baseline before infusion	–	QTc interval	317 ± 0.9 ms
O=C1N[C@H](c2cncc(C#Cc3ccccc3)c2)[C@@H](c2ccccc2Cl)O1	–	–	monkey	28 days	–	NOAEL	200 mg/kg/day
CC(C)(NS(=O)(=O)c1cccc(Cl)c1O)c1ccc2ccccc2c1	–	colloidal aggregate formation, dynamic light scattering	50 mM potassium phosphate buffer	200 µM, pH 7.0, 1% DMSO	higher = more aggregation	DLS scattered light intensity	417000 counts/s
CCn1ncc2c1-c1cnc(N)c(c1)O[C@H](C)c1cc(F)ccc1-c1nn(C)nc1C2	–	–	female athymic nude mice, sample B PDX	oral, 0.2 mg/kg once daily for 1 days, 1 h	–	unbound plasma concentration	24 ± 1.4 nM
C[C@H]1Oc2cc(cnc2N)-c2c(nn(C)c2C#N)CN(C)C(=O)c2ccc(F)cc21	–	–	human patients, plasma	oral, cycle 2 day 1, median, together with: avelumab	–	Cmax, dose-normalized	6 ng/mL/mg

Compound	tested on	test	system	conditions	how to read	quantity	result
Cn1cc(-c2ccc(-c3cncc(Cl)c3N3CCC4(CCNC4=O)CC3)cc2)cn1	COLO 205	gene expression, microarray, refers to: UCHL1 mRNA	–	concentration not given, 2 h	relative to: untreated cells	log2 fold change	1.68
CNCCOC12CC3(C)CC(C)(CC(Cn4ncc(-c5ccc(N6CCc7cccc(C(=O)Nc8nc9ccccc9s8)c7C6)nc5C(=O)O)c4C)(C3)C1)C2	–	–	beagle dog, male, anaesthetised	intravenous bolus, 0.03 mg/kg, 75 min	relative to: baseline	PR interval change	-4 ms
CC1(C)CC(NS(=O)(=O)c2cccc(Cl)c2O)c2ccc(F)cc2O1 (centres unmarked)	–	colloidal aggregate formation, dynamic light scattering	50 mM potassium phosphate buffer	200 µM, pH 7.0, 1% DMSO	higher = more aggregation	DLS scattered light intensity	4.84e+06 counts/s
CNC(=O)c1ccc(-c2cnc3ncc(Cc4ccc5ncccc5c4)n3n2)cc1F	–	refers to: Pyrexia, all grades	cancer patients	oral, dose not given, dose escalation, any causality	–	patients with adverse event	16%
CC(C)n1c(Nc2cccnc2)nc2cnc(Nc3ccc(N4CCN(C)CC4)cc3)nc21	–	refers to: creatine phosphokinase increased	healthy male subjects	oral, 100 mg, study, together with: gemfibrozil	–	subjects with adverse event	14.3%
O=C(Nc1nc2cccc(-c3ccc(CN4CCS(=O)(=O)CC4)cc3)n2n1)C1CC1	–	refers to: gastrointestinal disorders	human rheumatoid arthritis patients	oral, 75 mg once daily, 4 weeks, regardless of relatedness	–	treatment-emergent adverse events	18.2%
CCN1/C(=C/C(C)=O)Sc2ccc(F)cc21	–	–	cynomolgus monkey	oral, 10 mg/kg, 0.5 h post-dose	–	heart rate	124 ± 21 beats/min
CCO[C@H]1CCN(Cc2c(OC)cc(C)c3[nH]ccc23)[C@H](c2ccc(C(=O)O)cc2)C1	–	–	PNH patients, active haemolysis	oral, 25 mg, 4 weeks, treatment	–	incidence of nasopharyngitis	0%
Cc1c(C[S+](C)[O-])cccc1NS(=O)(=O)c1cccc(Cl)c1O (centres unmarked)	–	colloidal aggregate formation, dynamic light scattering	50 mM potassium phosphate buffer	200 µM, pH 7.0, 1% DMSO	higher = more aggregation	DLS scattered light intensity	532000 counts/s
COCCOc1cnc2ccn([C@H](C)c3nnc4c(F)cc(-c5cnn(C)c5)cn34)c(=O)c2c1	–	–	cancer patients	oral, 300 mg once daily, 28 days, at mean Cmax 4140 ng/mL	–	QTcF change	~9.4 ms
CCCCc1ccc(-c2ccc(C#N)cc2)cc1	–	refers to: compound	human pregnant women, female fetuses, maternal serum	dose not given, paired maternal-cord samples, mean	–	concentration	0.28 ng/mL
COc1cc(C(=O)N2CCC3(CC2)CC(=O)c2c(cnn2C(C)C)C3)cc(-c2ccc(C(=O)O)cc2)n1	–	refers to: direct LDL cholesterol	human, fasting serum	100 mg every 12 h, day 13, adjusted geometric mean	relative to: baseline	percentage change from baseline	-10.8%
NC1(C(=O)N[C@@H](CCO)c2ccc(Cl)cc2)CCN(c2nc[nH]c3nccc2-3)CC1	–	–	metastatic CRPC patients	320 mg b.i.d., any grade, treatment-related, together with: enzalutamide 160 mg daily	–	incidence of weight decreased	0%
COc1cccc(OC)c1-c1cc(C(=O)NC2(C(=O)O)C3CC4CC(C3)CC2C4)nn1-c1ccc(C(=O)N(C)CCCN(C)CCCN(C)C(=O)CN2CCN(CC(=O)[O-])CCN(CC(=O)[O-])CCN(CC(=O)[O-])CC2)cc1C(C)C.[177Lu+3] (centres unmarked)	–	–	mouse, HT-29 xenograft	24 h post injection, biodistribution	relative to: tumour over brain uptake	tumour-to-brain ratio	254
O=C(O)CNC(=O)Cc1ccccc1	–	–	ventricular cardiomyocytes, C57BL/6 mouse	dose not given, 0.848 s	–	sarcomere length	1.62 µm
C=CC(=O)NC1CCN(c2ncc3ncnc(Nc4ccc(Oc5ccc6c(c5)ncn6C)c(C)c4)c3n2)CC1	–	–	healthy male volunteers, plasma	intravenous, 100 µg	–	volume of distribution	1.93 L/kg
CC(=O)Oc1ccccc1C(=O)O	–	–	male Hartley guinea pig, anaesthetized	intravenous infusion, 10 mg/kg, 10 min infusion, post-infusion	–	QTc interval	319 ± 0.6 ms
Cc1cc(C)cc(NC(=O)CN(C)S(=O)(=O)c2ccc3[nH]c4c(c3c2)CCCC4)c1	–	haemolysis	sheep erythrocytes	1 h, pH 7.5	–	HC50	> 128 µg/mL
Cc1cnc(N2CC3(CCOCC3)C2)c(C(=O)Nc2ccc(C(=O)N3CCc4cc(C(=O)Nc5c(C)cccc5F)sc4-c4ccccc43)cc2)c1	–	–	human, nasal epithelial lining fluid	inhaled, 5 mg twice daily, 36 h	–	concentration	11400 ng/mL
CC(C)c1nc(N(C)S(C)(=O)=O)nc(-c2ccc(F)cc2)c1/C=C/[C@@H](O)C[C@@H](O)CC(=O)O	–	–	cynomolgus monkey, suspended hepatocytes	dose not given	unbound, scaled in vitro	active uptake clearance	104 mL/min/kg
Cl.[2H]C([2H])([2H])CC(=O)c1cnc(NC(=O)C2CC2)cc1Nc1cccc(-c2ncn(C([2H])([2H])[2H])n2)c1OC	–	–	human, plasma	oral, 60 mg once daily, day 14, nonfasted, tablet, geometric mean	–	Ctrough	45.5 ng/mL
O=C(COc1ccc(Cl)cc1)NC12CC(c3nnc([C@H]4C[C@@H](OC(F)(F)F)C4)o3)(C1)C2	–	refers to: Epistaxis	healthy humans, both sexes	oral, 45 mg, single ascending dose	relative to: subjects	treatment-emergent adverse events	16.7%
O=C(CCCN1CCC(O)(c2ccc(Br)cc2)CC1)c1ccc(F)cc1	–	haemolysis	sheep erythrocytes	1 h, pH 7.5	–	HC50	> 128 µg/mL
CCC(C)n1ncn(-c2ccc(N3CCN(c4ccc(OCC5COC(Cn6cncn6)(c6ccc(Cl)cc6Cl)O5)cc4)CC3)cc2)c1=O (centres unmarked)	–	–	human, plasma	oral, dose not given, day 14 predose, median	–	trough plasma concentration	117 ng/mL
N#Cc1ccc2c(c1)[C@H]1CCCN(C(=O)c3ccc4[nH]cnc4c3)[C@H]1C2	–	–	human females	10 mg, end of trial	–	SHBG level	28.7 nmol/L
